Experimental data gathered from unrelated publications.
Compare with care: the assays were run in different laboratories. Values joined by “and” are separate records of one study, mostly repeats; a detail may differ. ± marks the error that the study gave.
MC1R: Melanocyte-stimulating hormone receptor (MC1R, Homo sapiens, UniProt Q01726)
Sigmar1: Sigma non-opioid intracellular receptor 1 (Sigmar1, Rattus norvegicus, UniProt Q9R0C9)
Oprk1: Kappa-type opioid receptor (Oprk1, Rattus norvegicus, UniProt P34975)
ache: Acetylcholinesterase (ache, Electrophorus electricus, UniProt O42275)
ampC: Beta-lactamase (ampC, Escherichia coli K-12, UniProt P00811)
Cnr1: Cannabinoid receptor 1 (Cnr1, Mus musculus, UniProt P47746)

CC(=O)N[C@@H](CCCNC(=N)N)C(=O)N[C@H](Cc1ccc(O)cc1)C(=O)N[C@@H](CCCNC(=N)NC(=O)NCCCCN)C(=O)N[C@@H](CC(C)C)C(=O)N[C@@H](CCCNC(=N)N)C(=O)N[C@@H](Cc1ccc(O)cc1)C(N)=O — Ki (Neuropeptide Y receptor type 5 (NPY5R, Homo sapiens, UniProt Q15761); ligand displacement, radioligand): > 5 µM
CC[C@H](C)[C@H](NC(=O)CN)C(=O)N[C@H](C(=O)N[C@@H](CC(N)=O)C(=O)N[C@H](C(=O)N[C@@H](CC(C)C)C(=O)N[C@@H](CCC(N)=O)C(=O)N[C@@H](C)C(=O)N[C@@H](Cc1ccc(O)cc1)C(=O)N[C@@H](Cc1ccc(O)cc1)C(=O)N[C@H]1CSSC[C@@H]2NC(=O)[C@H](CCCCN)NC(=O)[C@H](CCCNC(=N)N)NC(=O)CNC(=O)[C@H](CCCNC(=N)N)NC(=O)[C@H]([C@@H](C)O)NC(=O)[C@H](CO)NC(=O)[C@@H]3CSSC[C@H](NC(=O)[C@H](CCCNC(=N)N)NC(=O)CNC(=O)CNC(=O)[C@H](CCCNC(=N)N)NC(=O)[C@H](C(C)C)NC(=O)[C@H](CCCNC(=N)N)NC1=O)C(=O)N[C@@H](C)C(=O)N[C@@H](C(C)C)C(=O)N[C@@H](CC(C)C)C(=O)N[C@@H](CO)C(=O)N[C@@H](CSSC[C@@H](C(=O)N[C@@H](CCCNC(=N)N)C(=O)N[C@@H](CCCNC(=N)N)C(=O)N[C@@H](CCCCN)C(=O)N[C@@H](CCCCN)C(N)=O)NC2=O)C(=O)N[C@@H](CC(C)C)C(=O)N1CCC[C@H]1C(=O)N[C@@H](CCCCN)C(=O)N[C@@H](CCC(=O)O)C(=O)N[C@@H](CCC(=O)O)C(=O)N[C@@H](CCC(N)=O)C(=O)N[C@@H]([C@@H](C)CC)C(=O)NCC(=O)N[C@@H](CCCCN)C(=O)N3)[C@@H](C)O)[C@@H](C)CC — Ki (MC1R; ligand displacement in cells): 0.075 µM
C[C@]12CCC[C@H]1[C@@H]1CCc3c(cc(Br)c(O)c3Br)[C@H]1CC2 — Ki (Aldo-keto reductase family 1 member C2 (AKR1C2, Homo sapiens, UniProt P52895); enzyme activity, inhibitor, absorbance): 1.98 µM
O=c1sc2ccccc2n1CCCCN1CCCCCC1 — Ki (Sigmar1; binding, radioligand binding; rat liver membranes; added: [3H](+)-pentazocine 5 nM): 0.0032 ± 2e-05 µM
CC(=O)NCC(=O)N(C)[C@@H](Cc1ccccc1)C(=O)N[C@@H](Cc1ccccc1)C(=O)N[C@@H](Cc1c[nH]c2ccccc12)C(=O)N[C@@H](CCCNC(=N)N)C(=O)N[C@@H](CC(C)C)C(=O)N[C@@H](CCCNC(=N)N)C(=O)N[C@@H](CCCNC(=N)N)C(=O)N[C@H](C)C(=O)N[C@@H](CCCNC(=N)N)C(=O)N1CCC[C@H]1C(=O)N[C@@H](CCCCN)C(N)=O — Ki (Oprk1; ligand displacement, radioligand): 0.0219 µM
CC(C)=CCCC1(C)C=Cc2c(ccc3cc(-c4cc(O)cc(O)c4CC=C(C)C)oc23)O1 (stereo not drawn) — Ki (ache; enzyme activity, inhibitor): 1.4 µM
CC(C)Oc1ccc(B(O)O)c(F)n1 — Ki (ampC; enzyme activity, inhibitor; added: CENTA): 0.48 µM
COc1cc(/C=C/C(=O)CC(=O)/C=C/c2ccc(OC(=O)CCc3c[nH]c4ccccc34)c(OC)c2)ccc1OC(=O)CCc1c[nH]c2ccccc12 — Ki (ache; enzyme activity, inhibitor): 3 µM
CCC(=O)c1ccc2c(c1)sc(=O)n2CCN1CCCCCC1 — Ki (Sigmar1; binding, radioligand binding; rat liver membranes; added: [3H](+)-pentazocine 5 nM): 0.0045 ± 0.0002 µM
C[n+]1cn([C@@H]2O[C@H](COP(=O)([S-])OP(=O)(O)OP(=O)(O)OP(=O)([S-])OC[C@H]3O[C@@H](n4c[n+](C)c5c(O)nc(N)nc54)[C@H](O)[C@@H]3O)[C@@H](O)[C@H]2O)c2nc(N)nc(O)c21 (stereo partly drawn) — Ki (mRNA decapping complex subunit 2, with Dcp1 (dcp2, Schizosaccharomyces pombe, UniProt O13828); mRNA decapping, inhibitor; single turnover, free enzyme, added: Dcp1-Dcp2 complex, capped 29-nt RNA): 65 ± 7 µM
COC(=O)N(C)[C@@H](Cc1ccccc1)C(=O)N[C@@H](Cc1ccccc1)C(=O)N[C@@H](CC1CCCCC1)C(=O)N[C@@H](CCCNC(=N)N)C(=O)N[C@@H](CC(C)C)C(=O)N[C@@H](CCCNC(=N)N)C(=O)N[C@@H](CCCNC(=N)N)C(=O)N[C@H](C)C(=O)N[C@@H](CCCNC(=N)N)C(=O)N1CCC[C@H]1C(=O)N[C@@H](CCCCN)C(N)=O — Ki (Oprk1; ligand displacement, radioligand): 0.0036 µM
O=C(/C=C/c1ccccc1)c1cc2ccccc2oc1=O — Ki (Amine oxidase [flavin-containing] B (MAOB, Homo sapiens, UniProt P27338); enzyme activity, inhibitor): 0.5 µM
O=c1oc2c(CNCCc3cccc(F)c3)c(O)ccc2c2c1CCC2 — Ki (ache; enzyme activity, inhibitor): 0.21 µM
CCCCCCCC[C@@H](O)[C@H](C)C(=O)N[C@H](CCC(=O)O)C(=O)N[C@H](CC(=O)O)C(=O)N[C@H](CC(C)C)C(=O)N[C@H](CC(C)C)C(=O)N[C@H](CC(C)C)C(=O)N[C@H](CC(C)C)C(=O)N[C@@H](C(N)=O)C(C)C — Ki (Mediator of RNA polymerase II transcription subunit 25, ACID domain; with ATF6α (Homo sapiens, UniProt Q71SY5); fluorescence polarization; added: NP40 or Triton X-100): no effect
CCOC(=O)[C@](CC)(CCCSCCOCCOCCNc1ccc([N+](=O)[O-])c2nonc12)NC(=O)c1ccc(C2CC2)c(Cc2ccc(F)cc2)n1 — Ki (Cnr1; ligand displacement, radioligand; cell membranes): 0.691 µM
Cc1cc2c(cc1Cl)-c1c(c(C(=O)NC3CC4CC(C3C)C4(C)C)nn1-c1ccc(Cl)cc1Cl)C2 (stereo not drawn) — Ki (Cnr1; binding, radioligand displacement; mouse brain homogenate without cerebellum; added: [3H]CP-55,940): 2.67 ± 0.333 µM
CCCCc1ccc2c(c1)sc(=O)n2CCCCN1CCCCCC1 — Ki (Sigmar1; binding, radioligand binding; rat liver membranes; added: [3H](+)-pentazocine 5 nM): 0.0019 ± 0.0002 µM
CC[C@H](C)[C@H](NC(=O)CN)C(=O)N[C@H](C(=O)N[C@@H](CC(N)=O)C(=O)N[C@H](C(=O)N[C@@H](CC(C)C)C(=O)N[C@@H](CCC(N)=O)C(=O)N[C@@H](CCCCN)C(=O)N[C@@H](Cc1ccc(O)cc1)C(=O)N[C@@H](C)C(=O)N[C@H]1CSSC[C@@H]2NC(=O)[C@H](CCCCN)NC(=O)[C@H](CCCNC(=N)N)NC(=O)CNC(=O)[C@H](CCCNC(=N)N)NC(=O)[C@H]([C@@H](C)O)NC(=O)[C@H](CO)NC(=O)[C@@H]3CSSC[C@H](NC(=O)[C@H](CCCNC(=N)N)NC(=O)CNC(=O)CNC(=O)[C@H](CCCNC(=N)N)NC(=O)[C@H](C(C)C)NC(=O)[C@H](CCCNC(=N)N)NC1=O)C(=O)N[C@@H](C)C(=O)N[C@@H](C(C)C)C(=O)N[C@@H](CC(C)C)C(=O)N[C@@H](CO)C(=O)N[C@@H](CSSC[C@@H](C(=O)N[C@@H](CCCNC(=N)N)C(=O)N[C@@H](CCCNC(=N)N)C(=O)N[C@@H](CCCCN)C(=O)N[C@@H](CCCCN)C(N)=O)NC2=O)C(=O)N[C@@H](CC(C)C)C(=O)N1CCC[C@H]1C(=O)N[C@@H](CCCCN)C(=O)N[C@@H](CCC(=O)O)C(=O)N[C@@H](CCC(=O)O)C(=O)N[C@@H](CCC(N)=O)C(=O)N[C@@H]([C@@H](C)CC)C(=O)NCC(=O)N[C@@H](CCCCN)C(=O)N3)[C@@H](C)O)[C@@H](C)CC — Ki (MC1R; ligand displacement in cells): 0.055 µM
COC(=O)C1C(OC(c2ccc(Cl)cc2)c2ccc(Cl)cc2)CC2CCC1N2C (single isomer, unassigned) — Ki (Muscarinic acetylcholine receptor M3 (CHRM3, Homo sapiens, UniProt P20309); ligand displacement, radioligand): 2.39 µM
CCCCCCCCCCN(O)C(=O)CCCCC[C@@H]1NC(=O)[C@H]2CCCN2C(=O)[C@H](Cc2ccccc2)NC(=O)[C@H](Cc2ccccc2)NC1=O — Ki (Histone deacetylase 11 (HDAC11, Homo sapiens, UniProt Q96DB2); enzyme activity, inhibitor, fluorescence): 0.0047 µM
CC[C@H](C)[C@H](NC(=O)[C@@H]1CSSC[C@H](NC(=O)[C@H](Cc2ccc(O)cc2)NC(=O)CNC(C)=O)C(=O)N[C@@H](CO)C(=O)N[C@@H](CCCNC(=N)N)C(=O)N[C@@H](CO)C(=O)N[C@@H](Cc2ccc(O)cc2)C(=O)N2CCC[C@H]2C(=O)N2CCC[C@H]2C(=O)N[C@@H](C(C)C)C(=O)N1)C(=O)N1CCC[C@H]1C(=O)N[C@@H](CC(=O)O)C(N)=O — Ki (Mannan-binding lectin serine protease 2 (Homo sapiens, UniProt O00187); added: 250 µM Z-L-Lys-SBzl substrate): 0.1 ± 0.01 µM
CC(C)[C@H](NC(=O)c1ccc(CNc2nc3c(c(=O)[nH]2)CCC3)cc1)C(=O)NC1COC1 — Ki (Collagenase 3 (MMP13, Homo sapiens, UniProt P45452); enzyme activity, inhibitor): 0.01 µM and 0.0103 µM
C[C@]12COc3ccc(OCc4ccccc4)cc3[C@H]1CCN2 — Ki (Sigma non-opioid intracellular receptor 1 (SIGMAR1, Homo sapiens, UniProt Q99720); cell-free assay, radioligand): 0.0021 µM
CC1C=CC(C)C(C(=O)O)C1C(=O)O (stereo not drawn) — Ki (ampC): 400 µM
